# Experimental data collected from several papers.
# Numbered parts are unrelated; each lists some results of a single study.

# Block 1 — technique: universal PBM; molecule type: double-stranded DNA, one strand shown; matrix: in vitro; concentration: 600 nM; reading: higher = stronger binding
# Target: Sal-like protein 4, full length isoform A (SALL4, Homo sapiens, UniProt Q9UJQ4, residues 1-1053)
# UniProt Q9UJQ4, sequence (whole entry, looked up): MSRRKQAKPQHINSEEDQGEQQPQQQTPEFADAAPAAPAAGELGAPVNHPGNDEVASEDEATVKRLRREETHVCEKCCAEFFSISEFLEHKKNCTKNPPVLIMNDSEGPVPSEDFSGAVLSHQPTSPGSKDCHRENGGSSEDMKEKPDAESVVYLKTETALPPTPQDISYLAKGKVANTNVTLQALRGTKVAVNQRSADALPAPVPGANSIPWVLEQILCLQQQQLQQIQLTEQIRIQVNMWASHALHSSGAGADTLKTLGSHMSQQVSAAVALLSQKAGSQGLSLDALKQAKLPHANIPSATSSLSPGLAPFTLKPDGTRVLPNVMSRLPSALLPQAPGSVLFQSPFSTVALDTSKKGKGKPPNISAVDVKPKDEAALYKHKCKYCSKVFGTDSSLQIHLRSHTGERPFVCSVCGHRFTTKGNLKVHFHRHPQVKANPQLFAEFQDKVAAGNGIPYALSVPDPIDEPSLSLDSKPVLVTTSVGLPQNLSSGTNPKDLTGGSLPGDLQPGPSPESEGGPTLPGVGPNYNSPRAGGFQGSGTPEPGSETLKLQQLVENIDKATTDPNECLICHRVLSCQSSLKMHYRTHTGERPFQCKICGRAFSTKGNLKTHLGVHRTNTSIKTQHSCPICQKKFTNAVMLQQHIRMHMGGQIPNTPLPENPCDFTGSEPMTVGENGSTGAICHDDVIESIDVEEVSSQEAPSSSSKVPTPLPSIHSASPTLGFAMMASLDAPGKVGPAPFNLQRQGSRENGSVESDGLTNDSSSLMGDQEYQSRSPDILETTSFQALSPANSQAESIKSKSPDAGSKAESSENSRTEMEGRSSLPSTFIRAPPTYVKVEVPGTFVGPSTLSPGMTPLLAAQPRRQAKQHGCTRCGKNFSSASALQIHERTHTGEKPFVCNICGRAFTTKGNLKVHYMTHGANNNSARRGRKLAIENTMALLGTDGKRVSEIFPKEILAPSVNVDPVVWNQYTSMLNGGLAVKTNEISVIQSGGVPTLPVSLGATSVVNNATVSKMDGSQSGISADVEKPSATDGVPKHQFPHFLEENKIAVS
# Setting: 8-mer, flanks averaged, mean of replicates
Sequence,E-score
GATAAAGA,0.129
GCTGCACA,-0.293
GACCGTAC,-0.215
AAGAGGGC,-0.102
AATTAGCT,0.164
AGGTGAGC,-0.155
GTGGCATA,0.0784
ATCGGTTA,0.118
AACAAGTT,0.106
GAATGCAC,0.0595
ATTGGATG,0.172
CGGCGCGA,-0.0702
GCATGTTA,0.119
CACATTTA,0.295
ACGTCAGC,-0.127
CTGGTAGC,-0.202
CTCGCACC,-0.214
AGCCGTGG,-0.158
CGGTCATA,0.11
CCGGCCGG,-0.466
AGTACGAG,0.152
GCACGACA,-0.153
ACGGGAGT,-0.097
AAAGCCAC,0.0124
AGGATCAG,-0.174

# Block 2 — technique: RNA Bind-n-Seq; molecule type: RNA; matrix: in vitro; concentration: 1 µM; setting: whole 134-nt RNA, ends assumed; together with: 150 mM KCl; baseline: input library; reading: higher = stronger binding
# Target: Ras GTPase-activating protein-binding protein 1, C-terminal RGG region (G3BP1, Homo sapiens, UniProt Q13283)
# UniProt Q13283, sequence (whole entry, looked up): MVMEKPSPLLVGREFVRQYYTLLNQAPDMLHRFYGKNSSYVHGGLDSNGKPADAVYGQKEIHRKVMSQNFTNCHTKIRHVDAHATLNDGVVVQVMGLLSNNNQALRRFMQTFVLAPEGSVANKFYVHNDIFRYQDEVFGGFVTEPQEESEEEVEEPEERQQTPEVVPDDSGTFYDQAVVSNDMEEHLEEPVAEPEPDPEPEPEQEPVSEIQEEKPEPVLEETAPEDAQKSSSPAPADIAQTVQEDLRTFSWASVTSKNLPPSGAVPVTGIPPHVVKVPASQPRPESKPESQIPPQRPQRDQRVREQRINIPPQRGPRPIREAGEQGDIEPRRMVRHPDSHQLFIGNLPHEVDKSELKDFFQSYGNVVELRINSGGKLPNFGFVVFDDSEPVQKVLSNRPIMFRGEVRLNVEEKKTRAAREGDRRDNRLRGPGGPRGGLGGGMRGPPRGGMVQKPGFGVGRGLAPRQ
# Shared flanks, not repeated: GGGAGUUCUACAGUCCGACGAUC … UGGAAUUCUCGGGUGUCAAGG
Sequence,log2 enrichment
UCCUGUGCUACACAUCGUAUGUACCGAAUCGGGAAAAAAGGAAAAAAGGGGAAAAAAGGAAAGUAUUAUGUUACGCCGUUCGGAUCUGCA,-1.56
CUCAAGUCCUGUGCUACACAUCGUAUGUACCGAAUCGGUUUGGAAAGGAAAGGAAAGUAUUAUGUUACGCCGUUCGGAUCUGCACUUCCA,-1.2
CAAGUCCUGUGCUACACAUCGUAUGUACCGAAUCGGGGCCCGGGCCCGGCCCGGGGAAAGUAUUAUGUUACGCCGUUCGGAUCUGCACUU,-2.33
CCUGUGCUACACAUCGUAUGUACCGAAUCGGGGAAAAAAAGGGGAAAAAAAGGGGUGGGGAAAGUAUUAUGUUACGCCGUUCGGAUCUGC,0.532
AGUCCUGUGCUACACAUCGUAUGUACCGAAUCGGGGUUUUUUUGGGGUGGGGUGGGGAAAGUAUUAUGUUACGCCGUUCGGAUCUGCACU,1.51
GUCCUGUGCUACACAUCGUAUGUACCGAAUCGGGGAGGGGAAAGGGGUUUUUUUGGGGAAAGUAUUAUGUUACGCCGUUCGGAUCUGCAC,2.45
UCAAGUCCUGUGCUACACAUCGUAUGUACCGAAUCGGUUUGGGGUUUGGGUUUGGAAAGUAUUAUGUUACGCCGUUCGGAUCUGCACUUC,-0.868
UCAAGUCCUGUGCUACACAUCGUAUGUACCGAAUCGGUUUGGGGUUUGGUUUGGGAAAGUAUUAUGUUACGCCGUUCGGAUCUGCACUUC,-0.988
UGCAGCUGCUGGCCGCCUCCUAUGACCUGCACCGCUACUUCUACACGGGUGCCGAGAUCCUGGGCCUCAUCGACGAGAAGCACCGCGAGC,-0.349
CUGUGCUACACAUCGUAUGUACCGAAUCGGGGUUUUUUUGGUUUUUUUGGGGUUUUUUUGGAAAGUAUUAUGUUACGCCGUUCGGAUCUG,-1.2
UCCUGUGCUACACAUCGUAUGUACCGAAUCGGGGUUUUUUUGGGGUUUGGGGUUUGGGGAAAGUAUUAUGUUACGCCGUUCGGAUCUGCA,2.28
GUCCUGUGCUACACAUCGUAUGUACCGAAUCGGGCCCCCGGGCCCCCGGGCCCCCGGGAAAGUAUUAUGUUACGCCGUUCGGAUCUGCAC,-1.98
UCCUGUGCUACACAUCGUAUGUACCGAAUCGGGUUUUUGGGAAAAAAAGGGAAAAAGGGAAAGUAUUAUGUUACGCCGUUCGGAUCUGCA,-0.896
UCAAGUCCUGUGCUACACAUCGUAUGUACCGAAUCGGCCGGGCCGGGGCCGGGGAAAGUAUUAUGUUACGCCGUUCGGAUCUGCACUUCC,-1.56

# Block 3 — technique: RNA Bind-n-Seq; molecule type: RNA; matrix: in vitro; concentration: 365 nM; baseline: no-protein control; reading: higher = stronger binding
# Target: RNA binding protein fox-1 homolog 2, RRM domain, GST-SBP tag (RBFOX2, Homo sapiens, UniProt O43251-10, residues 100-194)
# Setting: natural RNA segment, single round, ends assumed
# Shared flanks, not repeated: GGGAGUUCUACAGUCCGACGAUC … UGGAAUUCUCGGGUGCCAA
# Residues (chain): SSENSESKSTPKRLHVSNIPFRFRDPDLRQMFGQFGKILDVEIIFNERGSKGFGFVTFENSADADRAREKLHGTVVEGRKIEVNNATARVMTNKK
Sequence,RBNS enrichment (R)
AUUGCUUUUUUUCAGCAUCCCAAUUGUUAUAGGUUGCUCCUGAUAGAGGUAGCCACAGUCCUGGAGUACCAUAGGGUGAUGUUCCUUCUGCAUGCAUCUGCAGGGCCUGU,6.59
UGUGUGUGUGUGCUAUCCAAAUAUAUUUGUAUAUAUUUGUAUAGCAUUUUUACACUUUAGGAGUAAUCUGGAAUUCAAAAGGGAAUGAGAGCUUACUCCCUUCCACAGUU,0.284
CUCCUCACGUCAGGAGCAAGCAGCCGUGGACCCCUAAGCCGAGCUGGUGGAAGGCCCCUCCCCAUCGCCAGCCGGGCCCUCAUGCUGACCUUGCAAAUUCAGCCGCUGCU,0.251
ACGUCUCAUUUAAAGCAAAUUAAGUAGGACAAGCAAGUCAGUAAAAUAGAAGUAUUAAAAAGAAUCAUCCUUUAAAUCACAGAUCUUAUUUUGAGAUUAAAAAAAAUACU,0.289
AGCAGAGUAGUAUUUUUAUAUUUAAAUGUUAAAAACAAAAAAGUUAUAUAUAUAUGGAUGUGUGGAUGUAUGUCUUUCUAAUUGAGAGAACCAUCCUAUUCACUGGGUGC,0.509
GUAAAGAUUAGUUUCAGUGAGUCCCAGGGACUAAUUAAGGUUUAUUUUUAAAAGCGUCUGCCUUGGUGCGCAACCACCUCCUGCAUGCUAUGCAUGCUGUUGGGACUCGU,0.431
CAAUAUUUUUGUUGUGUAUAGAUGUCUAAGAACCAACACUACUCAGUCUCCUGCUAGUCUGACUCCUGAAGCAUCAGACCCUGUCAUACUGUAUUGACUGUGUAUGUGCC,0.415
UGCCCUCGGCUGGAGUUCCUUUCUCACCCCUGUGAUUUGGAGGUGUGGAGAAGGGGAAGGGAGGGACAGCUCACUGGUUCCUUCUGCAGUACCUCUGUGGUUAAAAAUGG,0.548
ACUCUAUACCAAGGAUAUUAUUAAAACUAGAAAUGACUGCAUUGAGAGGGAGUUGUGGGAAAUAAGAAGAAUGAAAGCCUCUCUUUCUGUCCGCAGAUCCUGACUUUUCC,0.874
CUCUGUGCCCAAGCUGACACAGAACCCCAAAUGUGUGGGAGGAAUGGACCCCAGAGCUUUGGGCCCAGGGUGAGGGCAAGGGGAACUCUUCAGCCCCUUGCCUAGAGAGA,0.667
CACACGCUUGCCCUGGUUGGUCCUGUCUUUAGGCAGAUGUGGUCAGUAUUCUGUUCCCCAGGCAUACAGCAUCAUAUAUUAAAGCCACAGCAGAAGAGGAAUGUCGCCCA,0.861
GGAUGUCCCUUGGGUCAGAGGUCAUCCUUUCCCUCUCUCCUGUUAUCAGAGGCAAAGGAAGGUCUACAGGCAUCAAUGAGGGCAAAGGAGGGGGUCUCCAGACUCCACUG,0.318

# Block 4 — technique: protein binding microarray; molecule type: double-stranded DNA, one strand shown; matrix: in vitro; concentration: not given; baseline: not given; reading: higher = stronger binding
# Target: Histone acetyltransferase KAT6A, winged helix 1, GST fusion (KAT6A, Homo sapiens, UniProt Q92794, residues 1-85)
# Setting: 8-mer, flanks averaged, mean of 2 arrays, mostly near background
# Construct (chain): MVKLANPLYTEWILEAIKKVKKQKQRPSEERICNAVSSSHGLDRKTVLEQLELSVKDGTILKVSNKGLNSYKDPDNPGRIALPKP
Sequence,E-score
ATTGGTAC,-0.0165
AAAAGAAT,-0.0564
ATAGCGTA,0.264
GAGTATTA,-0.0399
AGAGGCTA,-0.143
CCTACAGG,-0.0618
AAGGGCCT,-0.124
ACCATAGA,-0.161
ACTACATG,-0.0632
GCATACGC,0.229
CCAGAAAG,-0.163
GGTGACGA,-0.182
GTTGTCTA,-0.137
ACCATCCG,-0.0116
TATCCCAA,-0.00779
GGCGCCCC,0.351
CGCTTCAC,0.162
CCGATCTC,0.0258
ACGGCGCC,0.43
AAAACATC,-0.162
ACCATCTA,-0.195
GGGATTTA,0.185
TGGAGTAA,-0.133
GCAGCCTA,-0.163
AGTCGTGC,-0.0407

# Block 5 — technique: aptamer microarray, sandwich; molecule type: DNA with 2'F-ANA; matrix: in vitro; concentration: 200 nM; together with: Cy3 exosite-II aptamer, 400 nM; reading: higher = stronger binding; sequence: GGTTGGTGTGGTTGG
# Target: Prothrombin, mature alpha-thrombin (F2, Homo sapiens, UniProt P00734)
# Setting: whole 15-mer aptamer, many near background
Modification,mean fluorescence intensity [a.u.]
2'F-ANA at 5 7 8 12 13,125
2'F-ANA at 2 9 15,406
2'F-ANA at 4 6 7 8 9 10 11 12 13,84.2
2'F-ANA at 3 7 8 9 10 11 13 14,378
2'F-ANA at 2 3 6 9 10 11,276
2'F-ANA at 3 4 5 7 8 9 13 14,50.7
2'F-ANA at 5 7 8 10 14 15,47.6
2'F-ANA at 1 6 7 8 11 12 14,79.7
2'F-ANA at 2 5 6 7 8 10 12 15,57.3
2'F-ANA at 1 11 12 13 15,278
2'F-ANA at 3 4 5 6 7 9 10 12 13 14 15,51.9
2'F-ANA at 1 2 5 6 8 9 10 12 13 14 15,60
2'F-ANA at 2 7 12 13 14,189
2'F-ANA at 1 3 5 6 8 9 10 11 12 14 15,45.9
2'F-ANA at 1 2 3 6 7 9 11 14 15,57.6
2'F-ANA at 2 4 6 8 9 10 13 15,110
2'F-ANA at 7 9 11 12 14 15,286
2'F-ANA at 2 3 4 6 8 14 15,242
2'F-ANA at 1 2 3 4 7 9 12 13,204
2'F-ANA at 2 3 15,839
2'F-ANA at 4 6 8 9 10 11 12 13 14,55.2
2'F-ANA at 6 7 11 12 14 15,214
2'F-ANA at 1 3 7 8 11 12 13 14 15,134

# Block 6 — technique: RNAcompete; molecule type: RNA; matrix: in vitro; concentration: 20 nM; setting: 7-mer, probes averaged, single round; baseline: mean of 7-mers; reading: higher = stronger binding
# Target: PABPC1L2, full length, GST fusion (mouse, UniProt A0ABA7IW68)
# Target sequence (chain): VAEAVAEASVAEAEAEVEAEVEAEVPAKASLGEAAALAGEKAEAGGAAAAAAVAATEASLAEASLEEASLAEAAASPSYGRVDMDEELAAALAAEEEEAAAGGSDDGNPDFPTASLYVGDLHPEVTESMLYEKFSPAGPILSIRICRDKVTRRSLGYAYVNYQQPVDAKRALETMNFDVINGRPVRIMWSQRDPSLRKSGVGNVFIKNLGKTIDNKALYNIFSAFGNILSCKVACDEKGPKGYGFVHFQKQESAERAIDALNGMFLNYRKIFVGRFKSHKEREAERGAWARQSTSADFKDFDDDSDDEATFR
Sequence,7-mer Z-score
ACCUCUC,-0.278
AUAAACG,1.24
ACCUACU,-0.204
AAAAACC,11.2
CUAAACU,0.0551
CAUUAAC,-0.0554
GGGUAAA,0.833
UACGUGA,-0.139
ACACGAC,0.117
AUCACAC,-0.18
CAUCUCA,-0.238
CCCCUAG,-0.436
CAAUAAG,0.0605
GUAUACC,-0.356
GUUAAUC,-0.278
GUCAGAG,-0.124
CAUCCUG,-0.353
CCUCGAU,-0.226
UUUUAGG,-0.0373
UGCUUGA,-0.157
UGAGUGG,-0.0881
CAUCGUU,-0.402
GGAGUUU,-0.295
GGUCACA,0.169
CUGGGCG,0.128

# A few entries again (block 5):
Modification,mean fluorescence intensity [a.u.]
2'F-ANA at 3 7 8 9 10 11 13 14,378
2'F-ANA at 2 3 6 9 10 11,276
2'F-ANA at 3 4 5 7 8 9 13 14,50.7
2'F-ANA at 5 7 8 10 14 15,47.6
2'F-ANA at 1 6 7 8 11 12 14,79.7
2'F-ANA at 2 5 6 7 8 10 12 15,57.3
2'F-ANA at 1 11 12 13 15,278
2'F-ANA at 3 4 5 6 7 9 10 12 13 14 15,51.9
2'F-ANA at 1 2 5 6 8 9 10 12 13 14 15,60
2'F-ANA at 2 7 12 13 14,189
2'F-ANA at 1 3 5 6 8 9 10 11 12 14 15,45.9
2'F-ANA at 1 2 3 6 7 9 11 14 15,57.6
2'F-ANA at 2 4 6 8 9 10 13 15,110
2'F-ANA at 7 9 11 12 14 15,286
2'F-ANA at 2 3 4 6 8 14 15,242
2'F-ANA at 1 2 3 4 7 9 12 13,204
